Measured values from different studies.
A part holds a random share of what one study measured. Positions count from the first letter of the parent shown.

Block 1 — technique: universal PBM; molecule type: double-stranded DNA, one strand shown; sample: in vitro; concentration: 600 nM; reading: higher = stronger binding
Target: Sal-like protein 4, full length isoform A (SALL4, Homo sapiens, UniProt Q9UJQ4, residues 1-1053)
Sequence of UniProt Q9UJQ4 (whole entry, looked up): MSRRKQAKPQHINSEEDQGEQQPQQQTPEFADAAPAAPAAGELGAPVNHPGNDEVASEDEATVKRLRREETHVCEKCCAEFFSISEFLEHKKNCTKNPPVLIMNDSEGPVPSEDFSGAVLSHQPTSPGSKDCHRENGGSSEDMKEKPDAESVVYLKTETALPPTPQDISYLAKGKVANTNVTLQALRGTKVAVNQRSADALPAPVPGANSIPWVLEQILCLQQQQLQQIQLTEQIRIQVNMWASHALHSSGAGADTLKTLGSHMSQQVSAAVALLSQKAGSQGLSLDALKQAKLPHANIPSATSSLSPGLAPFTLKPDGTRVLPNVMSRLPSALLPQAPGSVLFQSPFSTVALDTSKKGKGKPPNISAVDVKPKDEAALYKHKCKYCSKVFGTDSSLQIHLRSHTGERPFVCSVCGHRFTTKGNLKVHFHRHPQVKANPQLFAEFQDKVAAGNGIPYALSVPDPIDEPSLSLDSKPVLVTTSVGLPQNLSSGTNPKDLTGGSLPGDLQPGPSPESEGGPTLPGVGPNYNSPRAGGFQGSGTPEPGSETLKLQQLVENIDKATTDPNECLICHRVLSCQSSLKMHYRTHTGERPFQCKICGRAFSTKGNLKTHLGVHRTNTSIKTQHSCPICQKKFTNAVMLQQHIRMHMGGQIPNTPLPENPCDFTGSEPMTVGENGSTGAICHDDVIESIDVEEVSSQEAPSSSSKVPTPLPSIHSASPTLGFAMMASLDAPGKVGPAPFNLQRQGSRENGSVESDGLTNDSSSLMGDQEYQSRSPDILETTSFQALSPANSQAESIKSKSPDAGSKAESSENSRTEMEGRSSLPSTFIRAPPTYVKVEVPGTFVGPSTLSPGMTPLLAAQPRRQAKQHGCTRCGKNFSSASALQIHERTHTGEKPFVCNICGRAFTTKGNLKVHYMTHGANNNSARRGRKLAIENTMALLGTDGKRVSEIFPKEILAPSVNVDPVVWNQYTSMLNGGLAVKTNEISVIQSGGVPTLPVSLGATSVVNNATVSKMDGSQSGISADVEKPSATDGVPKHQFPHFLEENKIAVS
Notes: 8-mer, flanks averaged, mean of replicates
Oligonucleotide | E-score
GAAGGCCA | -0.304
AACCCAAC | -0.0552
AGAGGTGA | 0.0127
CTGCGGTC | -0.336
AATGTCTA | 0.247
AGAAGTGA | -0.00294
CTATGCGA | -0.148
AAACACAT | 0.164
ACATAGGC | 0.105
CTTAGGAA | 0.135
AACTTTCA | 0.197
CAGCCTAC | -0.132
GATGCTGA | -0.15
ATACTCTG | 0.147
GGTATCAC | -0.129
CCACCGAG | -0.322
GCCGTGTA | -0.108
CGATGAAA | 0.21
CGGGTGAC | -0.359
TAGACAGA | 0.0515
TAGTCGGA | -0.122
CCCTCTAA | -0.0731
GATACCAA | 0.108
AGCCTAAC | -0.059
CTACGTAA | 0.0803

Block 2 — technique: DHFR PCA, deep sequencing; sample: yeast; together with: (+)-ABA 0.032 µM; reference: wild-type fitted maximum; reading: higher = stronger binding
Target: ABI1, truncated, D143A, DHFR fusion (Arabidopsis thaliana)
Notes: methotrexate growth selection, single substitutions
Starting sequence: PYL1, truncated, DHFR fusion (Arabidopsis thaliana); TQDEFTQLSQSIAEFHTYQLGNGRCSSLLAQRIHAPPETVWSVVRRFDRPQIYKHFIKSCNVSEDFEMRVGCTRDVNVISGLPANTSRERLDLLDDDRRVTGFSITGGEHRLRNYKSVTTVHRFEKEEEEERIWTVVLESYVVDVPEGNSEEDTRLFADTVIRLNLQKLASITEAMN
Change | relative binding score [%]
Q10L | 7.16
G148W | 2.74
I52T | 21.9
I133N | 42.3
V62L | 15.5
N77F | 18.7
G81Q | 6.76
T17I | -5.64
L94K | -6.34
T154H | -3.77
M68Q | 2.74
K54Y | -0.519
V40R | 3.63
I33T | -4.55
S104E | 0.0402
D153N | -2.96
M176Y | 1.15
G108M | -1.8
C72I | 8.28

Block 3 — target: UBE2C UBC core domain (UniProt O00762); technique: yeast two-hybrid; sample: yeast; notes: mostly zero background; reference: not given; reading: higher = stronger interaction
Sequence of UniProt O00762 (whole entry, looked up): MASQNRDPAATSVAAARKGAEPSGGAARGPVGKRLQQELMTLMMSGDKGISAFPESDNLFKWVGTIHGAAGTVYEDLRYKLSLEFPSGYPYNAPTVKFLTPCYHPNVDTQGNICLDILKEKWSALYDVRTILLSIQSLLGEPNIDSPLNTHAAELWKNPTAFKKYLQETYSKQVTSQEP
B1: TRIM31 RING domain (UniProt Q9BZY9); chain FVNKLQEEVICPICLDILQKPVTIDCGHNFCLKCITQIGETSCGFFKCPLCKTSVRKNAIRF
B2: RNF2 RING domain (UniProt Q99496); chain SPRSLHSELMCPICLDMLKNTMTTKECLHRFCADCIITALRSGNKECPTCRKKLVSKRSLR
B3: TRIM22 RING domain (UniProt Q8IYM9); chain VKVDIEKEVTCPICLELLTEPLSLDCGHSFCQACITAKIKESVIISRGESSCPVCQTRFQPGNLRP
B4: RNF152 RING domain (UniProt Q8N8N0); chain ETLSQDSLLECQICFNYYSPRRRPKLLDCKHTCCSVCLQQMRTSQKDVRCPWCRGVTKLPPGFS
B5: RNF166 RING domain (UniProt Q96A37); chain GDSGLEAQYTCPICLEVYHRPVAIGSCGHTFCGECLQPCLQVPSPLCPLCRLPFDPKKVDK
B6: TRIM60 RING domain (UniProt Q495X7); chain ALVNLQEESSCPICLEYLKDPVTINCGHNFCRSCLSVSWKDLDDTFPCPVCRFCFPYKSFRR
B7: RNF183 RING domain (UniProt Q96D59); chain EQQGRELEAECPVCWNPFNNTFHTPKMLDCCHSFCVECLAHLSLVTPARRRLLCPLCRQPTVLASGQP
B8: RNF187 RING domain (UniProt Q5TA31); chain ALPAGPAEAACALCQRAPREPVRADCGHRFCRACVVRFWAEEDGPFPCPECADDCWQRAVEP
B9: RNF31 RING domain (UniProt Q96EP0); chain AFLRRLLAQECAVCGWALPHNRMQALTSCECTICPDCFRQHFTIALKEKHITDMVCPACGRPDLTDDTQLL
B10: DEF8 RING domain (UniProt Q6ZN54); chain AGRLGCSLTEIHTLFAKHIKLDCERCQAKGFVCELCREGDVLFPFDSHTSVCADCSAVFHRDCYYDNSTTCPKCARLSLRK
B11: MEX3B RING domain (UniProt Q6ZN04); chain SGLRRKGSRDCSVCFESEVIAALVPCGHNLFCMECANRICEKSEPECPVCHTAVTQAIRIF
Molecule | lacZ reporter activity
B1 (TRIM31 RING domain) | 0
B2 (RNF2 RING domain) | 0
B3 (TRIM22 RING domain) | 0
LDAASGHPLVCPLCHGQYERPCLLDCFHDFCTGCLRGRATDGRLSCPLCQHQTLVKGPSG (Rnf207 RING domain (UniProt Q3V3A7)) | 0
B4 (RNF152 RING domain) | 0
YCEMGSTFQLCKICAENDKDVKIEPCGHLMCTSCLTAWQESDGQGCPFCRCEIKGTEPII (CBLB RING domain (UniProt Q13191)) | 0
B5 (RNF166 RING domain) | 0
YPEEVDDDLICHICLQALLDPLDTPCGHTYCTLCLTNFLVEKDFCPMDRKPLVLQHCKK (LNX1 RING domain (UniProt Q8TBB1)) | 0
PEELAVNNDDCAICWDSMQAARKLPCGHLFHNSCLRSWLEQDTSCPTCRMSLNIADNNR (AMFR RING domain (UniProt Q9UKV5)) | 0
B6 (TRIM60 RING domain) | 0
B7 (RNF183 RING domain) | 0
FVKTVEDKYKCEKCHLVLCSPKQTECGHRFCESCMAALLSSSSPKCTACQESIVKDKVF (TRAF3 RING domain (UniProt Q13114)) | 0
B8 (RNF187 RING domain) | 0
KPDKMEETLTCIICQDLLHDCVSLQPCMHTFCAACYSGWMERSSLCPTCRCPVERICKNH (CHFR RING domain (UniProt Q96EP1)) | 0
B9 (RNF31 RING domain) | 0
B10 (DEF8 RING domain) | 0
MNDVLENELQCIICSEYFIEAVTLNCAHSFCSYCINEWMKRKIECPICRKDIKSKTYSL (RNF8 RING domain (UniProt O76064)) | 0
RYRQMEERITCPICIDSHIRLVFQCGHGACAPCGSALSACPICRQPIRDRIQIF (MIB2 RING domain (UniProt Q96AX9)) | 0
B11 (MEX3B RING domain) | 0

Block 4 — technique: RNA Bind-n-Seq; molecule type: RNA; sample: in vitro; concentration: 365 nM; reference: no-protein control; reading: higher = stronger binding
Target: RNA binding protein fox-1 homolog 2, RRM domain, GST-SBP tag (RBFOX2, Homo sapiens, UniProt O43251-10, residues 100-194)
Notes: natural RNA segment, single round, ends assumed
Shared flanks, not repeated: GGGAGUUCUACAGUCCGACGAUC … UGGAAUUCUCGGGUGCCAA
Construct (chain): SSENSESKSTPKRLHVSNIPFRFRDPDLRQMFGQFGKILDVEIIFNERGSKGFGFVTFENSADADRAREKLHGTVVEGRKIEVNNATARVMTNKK
Oligonucleotide | RBNS enrichment (R)
CUUGCCUUUUAGUCCUAUACAAAUGUACCUUUCUAUAAAGGGGUGCAAGCAGCACUUCAGAAGAAACCAGCAUCAAAGCAGCCUUCCCUGACCCCACCUAUCGUCUUCUG | 0.371
CCUUGGUUGUGAGAUGGGUACAUUCCAAAGGAGCAGCCUGGGGGAGGGGGCAGGCUCAGCCAGCCCUUGGAGGCUCAGAGCAGCUGGCCCAGGCUCCAGCUCGCCUCCAG | 0.398
UAGGACCUGGCGCACACAAGAGCAGGAGAACAGGGCUGGAGCAGCUGUUGACGGGACCCCUGCUGUCUUAAGCUUUUCCCCAUAGUGCCUAUAGUUUCCAAAGAAACUUA | 0.593
CUGCCUGCCAAUGCUCCAACUGAAGAGGCGACCUCUCACCCUGUGGCUCCGCCGUUAAGAGUGACCAGCUUAGCCACAGUUCUGGUGCUCAGCUUGAAGACAAGUCACAG | 0.425
GCAGAGGUGGCACGGAGGCAAUUGGGGAGUUCUUACUGAAUCCUCCUUUUCCACCCCACACCCUGAAGCCAUUGGAAAACUGGCUUCCUGUGCACUUCUAGAAUCCCAGC | 0.159
CCUUUAUGUGAGAAAUCCAAGAAAGUGUUCACUUUUUUGGGAUGCGAGACUCCUUGGUCUCAUUUGCCUUCACUUUGCAUUUGUUAGUGACCUCCACUAACCCCCACUUC | 0.65
CCUCUCUUCCAAGCCCCACCCUAAGGGUUAGCCCUUGGCCAAAUCUUUUGCCGUCUAGGCCCAGCCAGGCUUUUCUGACUAAAUAAGCAAUAAGAGGCUCUAAGCUGACU | 0.32
GCUGCUCGCUCUCGGCUGUAUGCACCUUCUAGACAGCAGAACGUCUGGUGGGAAGACAUGCCAGUGUUGGCCAUUGUCUCCCAUUCCAAAGAGAAUAACUUUGAACUGAG | 0.422
GGGAGUGGACACCACAGGAAGACACAGGUUGGAGCAAAACUUGAAUAAUGUCCUUUAUCCUGAUUUGAAAUAAUCACGUCAUCUUUCUGCUGAAUAAAAUUGGUUUGCAA | 0.362
AAUGGUUUUGCUUUGUAUUUUAUAGCUUGUUACCCUUAGGUAGGUAACAUCUUACAUUCUGUUUUCUUCCAGUCUUUGCAGUAUUCACUAGAGGUUCCCUUUGCAUGUUG | 64.6
GAUCAGGCUGUUGCCAUGGAAGUUCAGGGCCAUAGACUGCCCCACUUAAACUCUUGUCAGUCUGGGCUCAGGGUUCCCAGAGCUCAUUCCCCAGGAAUCUCUAAGACCAG | 0.19
AUGCCUGUCUUUGAGAGGAAGGUGUUAUAAUAUUAAUGAACAGUGCCAAAUACACUGUGCAUAUCUGCAAUUUAAUCUUUGAAUGUAUGUUACUGGAUUAGCUCCCUCCU | 0.266
